Assay results of several laboratories.
“And” joins repeats or separate records; there may be more than shown. ± gives the spread as reported.

C[C@H](CS)C(=O)N1CSC[C@H]1C(=O)O — IC50 (aminopeptidase W (pig); enzyme activity, inhibitor): 17.7 µM
CCCCC[S+]([O-])c1n[nH]c(N)n1 (centres unmarked) — log fold enrichment (human THEMIS domain; binding, affinity selection mass spectrometry; baseline: other proteins in batch): 0.00794
CC(=O)N[C@@H]1[C@@H](O)[C@H](O)[C@@H](CO)O[C@@H]1O — log2 fold change (binding, MIDAS equilibrium dialysis LC-MS; A2AR-BRIL thermostabilized; concentration not given; baseline: no-protein control): -0.117
CC[S+]([O-])c1nc(-c2ccccc2)cc(C(F)(F)F)n1 (centres unmarked) — cells with nuclear reporter (transportin-1/2; FUS nuclear import, high content imaging; HeLa Kyoto reporter; 0.05 µM, 2 h): 95.9% and 94.5%
COc1cccc(CNC(=O)C#Cc2cn(Cc3ccc(C(=O)O)cc3)c(=O)[nH]c2=O)c1 — remaining MMP-1 activity (MMP-1; inhibitor, colorimetric; 20 µM): 116 ± 29%
CCS(=O)(=O)c1nc(C2CC2)cc(C(F)(F)F)n1 — cells with nuclear reporter (transportin-1/2; FUS nuclear import, high content imaging; HeLa Kyoto reporter; 15.8 µM, 2 h): 94.6% and 97.7%
N#Cc1ccc(COc2cccc(C3CCN(Cc4nc5ccc(C(=O)O)cc5n4C[C@@H]4CCO4)CC3)n2)c(F)c1 — IC50 (sodium channel): 7.6 µM
Cc1ccc(CNC(=O)Cn2cc(CSc3nc4ccccc4[nH]3)nn2)cc1 — geometric mean inhibition (tubulin; tubulin polymerization, inhibitor; MDA-MB-231; 50, 100, 500 ppm): 23.7%
Cc1ccc2cc(C(=O)NS(=O)(=O)c3ccccc3-c3ccccc3)oc2c1 — IC50 (estrogen receptor alpha, human; reporter gene; MCF7-MVLN; 24 h): > 11 µM
C=CCOC/C1=C/C[C@@H](/C(C)=C/c2csc(C)n2)OC(=O)C[C@H](O)[C@@](C)(CC=C)C(=O)[C@H](C)[C@@H](O)[C@@H](C)CCC1 — EC50 (tubulin; tubulin assembly, stimulator; cell-free): 0.54 ± 0.07 µM
CNCc1ccc(-c2cc(-c3nc(-c4ccc(S(=O)(=O)C(C)C)cc4)cnc3N)on2)cc1 — inhibition (CK1 (yeast); inhibitor; 0.4 µM, added: ATP at Km): 0%
C=CC(=O)Nc1cc(Nc2nccc(-c3cn(C)c4ccccc34)n2)c(OC)cc1N(C)CCN(C)C — log2 fold change (DUSP4 human; cysteine engagement, chemoproteomic profiling, refers to: DUSP4 Cys12 peptide; NCI-H2073; 10 µM, 2 h; baseline: DMSO): 1.09
O=C(NN=Cc1ccc(C[n+]2ccccc2)cc1)c1ccc2ccc3ccc(C(=O)NN=Cc4ccc(C[n+]5ccccc5)cc4)nc3c2n1.[Br-].[Br-] — ΔTm (22CTA telomeric G4-DNA antiparallel; FRET melting; 1 µM, K10 buffer, DNA 0.2 µM, added: ds26 10 µM): 35.9 ± 0.6 °C
CN(C(=O)n1cnc(-c2ccc[n+]([O-])c2)c1)C1CCCCC1 — inhibition (ATP-sensitive potassium channel; concentration not given): 1.07%
c1coc(-c2n[nH]cc2-c2ccnc3ccccc23)c1 — log2 fold change (SKY1 (Candida albicans); kinase binding, MIB/MS competition; Candida albicans lysate; 10 µM; baseline: DMSO): 0.02
[Ca+2] — desensitization time constant (human TRPA1; ion current, two-electrode voltage clamp; Xenopus oocytes; +80 mV, added: AITC): 7.68 s and 21.4 s and 8.52 s and 20.5 s and 11.5 s
COc1cc(C)c2cc(C(=O)NS(=O)(=O)c3ccc(-c4ccccc4)cc3)oc2c1 — IC50 (estrogen receptor alpha, human; reporter gene; MCF7-MVLN; 24 h): > 17.6 µM
O=C(O)CNC(=O)c1ccccc1 — log2 fold change (binding, MIDAS equilibrium dialysis LC-MS; A2AR-BRIL thermostabilized; concentration not given; baseline: no-protein control): -0.54
NS(=O)(=O)c1ccc(Nc2nc(-c3ccc(F)cc3)c3ccccc3n2)cc1 — remaining binding (TAF1 bromodomain 2; BROMOscan; 1000 nM; baseline: untreated control, lower = stronger binding): 90%
CC(=O)Nc1cccc(-n2c(=O)n(C3CC3)c(=O)c3c(Nc4ccc(I)cc4F)n(C)c(=O)c(C)c32)c1 — kynurenine production (IDO1 human; inhibitor; A-431; 1 µM, added: IFN-γ): 86.1%

Repeated from above:
C=CC(=O)Nc1cc(Nc2nccc(-c3cn(C)c4ccccc34)n2)c(OC)cc1N(C)CCN(C)C — log2 fold change (DUSP4 human; cysteine engagement, chemoproteomic profiling, refers to: DUSP4 Cys12 peptide; NCI-H2073; 10 µM, 2 h; baseline: DMSO): 1.09
CC(=O)Nc1cccc(-n2c(=O)n(C3CC3)c(=O)c3c(Nc4ccc(I)cc4F)n(C)c(=O)c(C)c32)c1 — kynurenine production (IDO1 human; inhibitor; A-431; 1 µM, added: IFN-γ): 86.1%
O=C(O)CNC(=O)c1ccccc1 — log2 fold change (binding, MIDAS equilibrium dialysis LC-MS; A2AR-BRIL thermostabilized; concentration not given; baseline: no-protein control): -0.54
